Assay results of several laboratories.
“And” joins repeats or separate records; there may be more than shown. ± gives the spread as reported. In brackets after ≈: the same amount, converted by molar mass.

Structure (SMILES) | organism | test | system | conditions | quantity | result
O=c1[nH]cc(C(c2ccc([N+](=O)[O-])cc2)c2c[nH]c(=O)[nH]c2=O)c(=O)[nH]1 | Human immunodeficiency virus 1 | viral replication, inhibitor, ELISA |  | 1 µg/mL | inhibition | 43%
Nc1nc(-c2ccccc2)nc2[nH]nc(Nc3cccc(F)c3)c12 | coxsackievirus B3 | viral cytopathic effect | HeLa |  | IC50 | 200 nM
O=c1[nH]cc(C(c2ccc(Oc3ccccc3)cc2)c2c[nH]c(=O)[nH]c2=O)c(=O)[nH]1 | Human immunodeficiency virus 1 | viral replication, inhibitor, ELISA |  | 1 µg/mL | inhibition | 33%
CN(Cc1ccc(C2(C(F)(F)F)CCC2)cc1)Cc1cccc2ccccc12 | Trichophyton mentagrophytes | microbial growth, disc diffusion | ATCC18748 | 0.0005 µg/mL, 72 h | inhibition zone | 0 mm
C=C[C@]1(C)C[C@@H](OC(=O)CSc2ccc(NC(=O)c3ccco3)cc2)[C@]2(C)[C@H](C)CC[C@]3(CCC(=O)[C@H]32)[C@@H](C)[C@@H]1O | Mycoplasma gallisepticum |  | infected chickens, lung | intramuscular, 20 mg/kg daily x3, 72 h | lung mycoplasma count | 4.31 log10 CFU/mL and 4.27 log10 CFU/mL and 4.16 log10 CFU/mL and 3.98 log10 CFU/mL and 5.1 log10 CFU/mL and 4.57 log10 CFU/mL and 4.99 log10 CFU/mL and 5.74 log10 CFU/mL
CSc1ccc(Nc2n[nH]c3nc(-c4ccccc4)nc(N)c23)cc1 | rhinovirus B42 | viral cytopathic effect | HeLa |  | IC50 | 10 nM
COc1cc(O)c(-c2cc(-c3cc(-c4c(O)cc5c(c4OC)[C@H](C)N[C@H](C)C5)c4cc(C)cc(OC)c4c3O)c(O)c3c(OC)cc(C)cc23)c2c1[C@H](C)N[C@H](C)C2 | Plasmodium falciparum | asexual parasite proliferation, SYBR Green I fluorescence | Dd2 |  | IC50 | 70.1 ± 1.3 nM
C=C(NC(=O)c1csc(-c2nc3c(cc2O)-c2nc(cs2)C(=O)NC(C(C)O)C(=O)NC(=C(C)OC)c2nc(cs2)C(=O)NC2c4nc(cs4)C(=O)NC(COC(=O)c4c5c6c(cccc6n4O)COC(=O)C(OC4CC(C)(O)C(N(C)C)C(C)O4)C2OC5)c2nc-3cs2)n1)C(N)=O (stereo not shown) | Staphylococcus aureus | broth microdilution | methicillin-susceptible isolates |  | MIC90 | 0.0312 µg/mL (≈ 0.0217 µM)
COc1cc(C)c(-c2ccc(O)c3c2C[C@@H](C)N[C@@H]3C)c2cccc(O)c12 (single isomer, unassigned) | Plasmodium falciparum | asexual parasite proliferation, SYBR Green I fluorescence | clinical isolate SB_05, Mozambique |  | IC50 | 107 ± 5.7 nM
Cc1ncsc1-c1ccc(CNC(=O)[C@@H]2C[C@H](O)CN2C(=O)[C@@H](NC(=O)CN2CCN(C3CN(CCNC(=O)C[C@@H]4N=C(c5ccc(Cl)cc5)c5c(sc(C)c5C)-n5c(C)nnc54)C3)CC2)C(C)(C)C)cc1 | Spodoptera frugiperda | degrader, targeted LC-MS, refers to: BRD3 | Sf9 | 1 µM | protein level | 149% and 152% and 165% and 128%
CC1=N[C@H](C)Cc2c(-c3ccc(C)cc3)ccc(O)c21 | Plasmodium falciparum | asexual parasite proliferation, SYBR Green I fluorescence | Dd2 |  | IC50 | 653 ± 141 nM
O=c1[nH]cc(C(c2ccc(Br)cc2)c2c[nH]c(=O)[nH]c2=O)c(=O)[nH]1 | Human immunodeficiency virus 1 | viral replication, inhibitor, ELISA |  | 1 µg/mL | inhibition | 22%
Nc1nc(-c2ccc(OC(F)(F)F)cc2)nc2[nH]nc(Nc3ccccc3)c12 | coxsackievirus B3 | viral cytopathic effect | HeLa |  | IC50 | 11100 nM
COC1C=COC2(C)Oc3c(C)c(O)c4c(c3C2=O)C2=NC3(CCN(CC(C)C)CC3)NC2=C(NC(=O)C(C)=CC=CC(C)C(O)C(C)C(O)C(C)C(OC(=O)Nc2cccnn2)C1C)C4=O (stereo not shown) | Mycobacteroides abscessus | bacterial growth | subsp. abscessus M9 clinical isolate |  | IC90 | 103 nM
COc1cc(Nc2n[nH]c3nc(-c4ccccc4)nc(N)c23)cc(OC)c1OC | rhinovirus B42 | viral cytopathic effect | HeLa |  | IC50 | 110 nM
CC(C)(C)NCC(SS(=O)(=O)O)c1ccccc1 (stereo not shown) | Schistosoma mansoni |  | infected mice | 600 mg/kg single, dosed day 15, perfusion day 44 | mean female worms recovered | 1.4 worms per mouse
Nc1nc(-c2ccccc2)nc2[nH]nc(Nc3ccccc3)c12 | coxsackievirus B3 | viral cytopathic effect | HeLa |  | IC50 | 20 nM
O=C(O)c1cc(O)ccc1O | Streptomyces coelicolor | RT-PCR |  | 2 mM, 1 h | pcaH mRNA level | increased
Nc1ncnc2c1ncn2[C@@H]1O[C@H](CSCc2cccc(C(=O)O)c2)[C@@H](O)[C@H]1O | Murine coronavirus | viral replication, outcome no inhibition | A59 | 200 µM | inhibition | no inhibition
Nc1nc(-c2ccccc2)nc2[nH]nc(Nc3cc(F)c(F)c(F)c3)c12 | rhinovirus B42 | viral cytopathic effect | HeLa |  | IC50 | 240 nM
Cc1cccc2c1N(C(=O)n1ccnn1)CC2 | Arabidopsis thaliana |  | kai2 mutant | 3 µM, 72 h | germination rate | 73.4%
Cc1ccc(Nc2n[nH]c3nc(-c4ccccc4)nc(N)c23)cc1 | rhinovirus B42 | viral cytopathic effect | HeLa |  | IC50 | 10 nM
c1ccc(CN2CCOCCOCCN(CCCCCCCCCCCCN3CCOCCOCCN(CCCCCCCCCCCCN4CCOCCOCCN(Cc5ccccc5)CCOCCOCC4)CCOCCOCC3)CCOCCOCC2)cc1 | Klebsiella pneumoniae |  | ATCC BAA-2146 | quarter MIC, together with: tetracycline | tetracycline MIC | 300 ± 25 µM
Nc1nc(-c2ccccc2)nc2[nH]nc(Nc3ccccc3F)c12 | rhinovirus B42 | viral cytopathic effect | HeLa |  | IC50 | 10 nM
OC[C@H]1O[C@@H](OCCc2ccccc2)[C@H](O)[C@@H](O)[C@@H]1O | Zika virus | viral replication, CCK-8 | Vero C1008 | 10 µM, 96 h | inhibition | 17.1 ± 3.88%

Excerpt of the above:
Structure (SMILES) | organism | test | system | conditions | quantity | result
Nc1nc(-c2ccccc2)nc2[nH]nc(Nc3cccc(F)c3)c12 | coxsackievirus B3 | viral cytopathic effect | HeLa |  | IC50 | 200 nM
COc1cc(C)c(-c2ccc(O)c3c2C[C@@H](C)N[C@@H]3C)c2cccc(O)c12 (single isomer, unassigned) | Plasmodium falciparum | asexual parasite proliferation, SYBR Green I fluorescence | clinical isolate SB_05, Mozambique |  | IC50 | 107 ± 5.7 nM
C=C[C@]1(C)C[C@@H](OC(=O)CSc2ccc(NC(=O)c3ccco3)cc2)[C@]2(C)[C@H](C)CC[C@]3(CCC(=O)[C@H]32)[C@@H](C)[C@@H]1O | Mycoplasma gallisepticum |  | infected chickens, lung | intramuscular, 20 mg/kg daily x3, 72 h | lung mycoplasma count | 4.31 log10 CFU/mL and 4.27 log10 CFU/mL and 4.16 log10 CFU/mL and 3.98 log10 CFU/mL and 5.1 log10 CFU/mL and 4.57 log10 CFU/mL and 4.99 log10 CFU/mL and 5.74 log10 CFU/mL
CC(C)(C)NCC(SS(=O)(=O)O)c1ccccc1 (stereo not shown) | Schistosoma mansoni |  | infected mice | 600 mg/kg single, dosed day 15, perfusion day 44 | mean female worms recovered | 1.4 worms per mouse
